Measurements pooled from the literature.
A part holds a random share of what one study measured.
Chain of UniProt P15056 (whole entry, unmodified, looked up): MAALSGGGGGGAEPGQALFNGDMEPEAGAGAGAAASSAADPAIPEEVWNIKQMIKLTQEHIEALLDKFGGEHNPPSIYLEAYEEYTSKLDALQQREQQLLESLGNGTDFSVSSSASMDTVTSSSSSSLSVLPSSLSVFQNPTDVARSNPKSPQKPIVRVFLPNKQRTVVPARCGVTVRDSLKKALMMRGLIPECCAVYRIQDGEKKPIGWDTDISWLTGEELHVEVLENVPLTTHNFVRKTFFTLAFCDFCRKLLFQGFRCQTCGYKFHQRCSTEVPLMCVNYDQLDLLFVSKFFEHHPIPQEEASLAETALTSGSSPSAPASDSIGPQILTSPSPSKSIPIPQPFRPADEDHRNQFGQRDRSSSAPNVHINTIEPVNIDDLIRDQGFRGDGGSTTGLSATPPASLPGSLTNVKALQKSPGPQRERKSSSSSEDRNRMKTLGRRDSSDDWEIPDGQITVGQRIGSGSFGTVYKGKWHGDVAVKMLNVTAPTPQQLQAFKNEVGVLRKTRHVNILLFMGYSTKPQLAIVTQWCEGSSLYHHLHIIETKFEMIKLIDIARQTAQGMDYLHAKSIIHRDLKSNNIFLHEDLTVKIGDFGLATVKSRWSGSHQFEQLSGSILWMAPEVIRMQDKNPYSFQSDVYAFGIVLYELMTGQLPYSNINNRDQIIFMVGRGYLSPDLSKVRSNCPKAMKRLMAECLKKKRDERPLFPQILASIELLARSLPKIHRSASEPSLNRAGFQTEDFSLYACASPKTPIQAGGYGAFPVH
Chain of UniProt Q8IVH8 (whole entry, looked up): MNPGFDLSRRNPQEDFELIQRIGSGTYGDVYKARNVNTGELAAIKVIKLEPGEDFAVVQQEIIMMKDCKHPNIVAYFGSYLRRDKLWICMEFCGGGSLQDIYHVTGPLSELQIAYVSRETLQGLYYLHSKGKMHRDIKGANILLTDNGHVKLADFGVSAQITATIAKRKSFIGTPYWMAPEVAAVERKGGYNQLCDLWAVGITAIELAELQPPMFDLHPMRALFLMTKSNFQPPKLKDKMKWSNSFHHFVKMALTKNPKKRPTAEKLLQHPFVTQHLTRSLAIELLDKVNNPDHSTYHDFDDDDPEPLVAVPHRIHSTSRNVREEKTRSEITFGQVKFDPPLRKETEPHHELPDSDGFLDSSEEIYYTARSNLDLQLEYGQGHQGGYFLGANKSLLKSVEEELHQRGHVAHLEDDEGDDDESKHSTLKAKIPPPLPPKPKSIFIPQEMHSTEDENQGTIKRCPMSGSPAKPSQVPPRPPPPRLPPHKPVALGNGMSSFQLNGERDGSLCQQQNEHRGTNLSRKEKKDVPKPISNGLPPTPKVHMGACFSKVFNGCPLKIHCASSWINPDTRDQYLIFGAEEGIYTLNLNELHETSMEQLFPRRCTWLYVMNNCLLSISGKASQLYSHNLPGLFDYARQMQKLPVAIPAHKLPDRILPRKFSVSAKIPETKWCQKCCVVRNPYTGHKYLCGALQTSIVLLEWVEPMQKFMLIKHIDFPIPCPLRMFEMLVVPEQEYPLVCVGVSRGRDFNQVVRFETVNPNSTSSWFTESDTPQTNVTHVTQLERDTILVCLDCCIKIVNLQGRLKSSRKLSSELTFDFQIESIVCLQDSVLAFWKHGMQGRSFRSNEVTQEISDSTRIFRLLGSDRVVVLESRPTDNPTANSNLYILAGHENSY
Chain of UniProt P04629 (whole entry, looked up): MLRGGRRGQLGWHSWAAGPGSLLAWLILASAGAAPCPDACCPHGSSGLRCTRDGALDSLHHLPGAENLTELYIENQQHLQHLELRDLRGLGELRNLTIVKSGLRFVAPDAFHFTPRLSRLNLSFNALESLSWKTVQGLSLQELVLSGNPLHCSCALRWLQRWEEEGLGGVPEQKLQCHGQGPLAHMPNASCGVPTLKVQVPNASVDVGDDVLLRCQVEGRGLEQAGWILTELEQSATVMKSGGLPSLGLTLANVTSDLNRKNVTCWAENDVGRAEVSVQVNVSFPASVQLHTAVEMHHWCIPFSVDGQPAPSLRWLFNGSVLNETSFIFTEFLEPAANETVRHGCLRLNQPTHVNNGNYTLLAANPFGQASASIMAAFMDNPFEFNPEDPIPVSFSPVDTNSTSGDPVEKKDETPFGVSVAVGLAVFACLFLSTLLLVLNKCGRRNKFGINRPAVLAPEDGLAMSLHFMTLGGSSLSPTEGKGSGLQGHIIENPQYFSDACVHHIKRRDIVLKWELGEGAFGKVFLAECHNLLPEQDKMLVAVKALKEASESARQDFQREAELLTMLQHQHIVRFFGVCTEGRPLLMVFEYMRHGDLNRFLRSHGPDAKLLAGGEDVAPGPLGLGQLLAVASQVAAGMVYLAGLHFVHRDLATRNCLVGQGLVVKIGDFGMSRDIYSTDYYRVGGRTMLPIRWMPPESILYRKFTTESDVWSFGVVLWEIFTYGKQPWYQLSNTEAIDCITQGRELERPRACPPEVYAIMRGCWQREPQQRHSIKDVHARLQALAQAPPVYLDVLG
Chain of UniProt P22607 (whole entry, looked up): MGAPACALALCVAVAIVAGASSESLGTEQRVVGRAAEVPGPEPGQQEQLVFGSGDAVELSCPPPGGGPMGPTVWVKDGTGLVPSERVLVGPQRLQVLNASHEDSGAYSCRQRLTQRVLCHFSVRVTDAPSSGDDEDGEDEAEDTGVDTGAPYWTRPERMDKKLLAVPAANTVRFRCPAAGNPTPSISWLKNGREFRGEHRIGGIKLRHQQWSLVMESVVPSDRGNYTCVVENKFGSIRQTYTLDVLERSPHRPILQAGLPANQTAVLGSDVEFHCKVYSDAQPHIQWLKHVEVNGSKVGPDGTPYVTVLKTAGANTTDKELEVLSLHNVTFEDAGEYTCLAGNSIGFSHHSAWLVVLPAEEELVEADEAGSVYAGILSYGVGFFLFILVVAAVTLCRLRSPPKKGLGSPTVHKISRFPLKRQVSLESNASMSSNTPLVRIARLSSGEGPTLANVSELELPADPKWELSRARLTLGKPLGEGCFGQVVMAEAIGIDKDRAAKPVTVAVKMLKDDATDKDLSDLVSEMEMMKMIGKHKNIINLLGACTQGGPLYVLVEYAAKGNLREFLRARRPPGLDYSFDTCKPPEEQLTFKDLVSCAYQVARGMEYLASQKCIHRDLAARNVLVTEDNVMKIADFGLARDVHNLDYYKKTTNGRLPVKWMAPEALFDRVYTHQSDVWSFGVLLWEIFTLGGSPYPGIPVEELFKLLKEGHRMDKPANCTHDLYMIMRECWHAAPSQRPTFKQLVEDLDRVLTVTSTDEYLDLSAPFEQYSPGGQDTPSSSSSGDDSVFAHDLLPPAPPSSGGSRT
Chain of UniProt Q00535 (whole entry, looked up): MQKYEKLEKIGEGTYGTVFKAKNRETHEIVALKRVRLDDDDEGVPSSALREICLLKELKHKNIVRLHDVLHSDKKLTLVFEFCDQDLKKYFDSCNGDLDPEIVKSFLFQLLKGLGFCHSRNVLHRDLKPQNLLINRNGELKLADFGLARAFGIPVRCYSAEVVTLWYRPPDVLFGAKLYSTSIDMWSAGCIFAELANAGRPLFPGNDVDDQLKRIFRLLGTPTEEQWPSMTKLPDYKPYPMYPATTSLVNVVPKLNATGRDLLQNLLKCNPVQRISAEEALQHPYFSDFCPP

Study 1 — observed: thermal unfolding; technique: differential scanning fluorimetry; concentration: 5.5 µM; direction: higher = more unfolded
Compound: C[C@@H]1CN(c2ccc(-c3cc(C(=O)NCCOCCOCCOCCOCCNC(=O)/C=C/c4[nH]cc(C(=O)N[C@@H](CC(N)=O)c5ccc(F)c(Cl)c5)c4-c4ccc(Cl)cc4F)ccc3F)cc2NC(=O)c2c[nH]c(=O)cc2C(F)(F)F)C[C@H](C)N1C
WDR5: WD repeat-containing protein 5 (WDR5, Homo sapiens, UniProt P61964)
DCAF1: DDB1- and CUL4-associated factor 1 (DCAF1, Homo sapiens, UniProt Q9Y4B6)
Chain of UniProt Q9Y4B6 (whole entry, looked up): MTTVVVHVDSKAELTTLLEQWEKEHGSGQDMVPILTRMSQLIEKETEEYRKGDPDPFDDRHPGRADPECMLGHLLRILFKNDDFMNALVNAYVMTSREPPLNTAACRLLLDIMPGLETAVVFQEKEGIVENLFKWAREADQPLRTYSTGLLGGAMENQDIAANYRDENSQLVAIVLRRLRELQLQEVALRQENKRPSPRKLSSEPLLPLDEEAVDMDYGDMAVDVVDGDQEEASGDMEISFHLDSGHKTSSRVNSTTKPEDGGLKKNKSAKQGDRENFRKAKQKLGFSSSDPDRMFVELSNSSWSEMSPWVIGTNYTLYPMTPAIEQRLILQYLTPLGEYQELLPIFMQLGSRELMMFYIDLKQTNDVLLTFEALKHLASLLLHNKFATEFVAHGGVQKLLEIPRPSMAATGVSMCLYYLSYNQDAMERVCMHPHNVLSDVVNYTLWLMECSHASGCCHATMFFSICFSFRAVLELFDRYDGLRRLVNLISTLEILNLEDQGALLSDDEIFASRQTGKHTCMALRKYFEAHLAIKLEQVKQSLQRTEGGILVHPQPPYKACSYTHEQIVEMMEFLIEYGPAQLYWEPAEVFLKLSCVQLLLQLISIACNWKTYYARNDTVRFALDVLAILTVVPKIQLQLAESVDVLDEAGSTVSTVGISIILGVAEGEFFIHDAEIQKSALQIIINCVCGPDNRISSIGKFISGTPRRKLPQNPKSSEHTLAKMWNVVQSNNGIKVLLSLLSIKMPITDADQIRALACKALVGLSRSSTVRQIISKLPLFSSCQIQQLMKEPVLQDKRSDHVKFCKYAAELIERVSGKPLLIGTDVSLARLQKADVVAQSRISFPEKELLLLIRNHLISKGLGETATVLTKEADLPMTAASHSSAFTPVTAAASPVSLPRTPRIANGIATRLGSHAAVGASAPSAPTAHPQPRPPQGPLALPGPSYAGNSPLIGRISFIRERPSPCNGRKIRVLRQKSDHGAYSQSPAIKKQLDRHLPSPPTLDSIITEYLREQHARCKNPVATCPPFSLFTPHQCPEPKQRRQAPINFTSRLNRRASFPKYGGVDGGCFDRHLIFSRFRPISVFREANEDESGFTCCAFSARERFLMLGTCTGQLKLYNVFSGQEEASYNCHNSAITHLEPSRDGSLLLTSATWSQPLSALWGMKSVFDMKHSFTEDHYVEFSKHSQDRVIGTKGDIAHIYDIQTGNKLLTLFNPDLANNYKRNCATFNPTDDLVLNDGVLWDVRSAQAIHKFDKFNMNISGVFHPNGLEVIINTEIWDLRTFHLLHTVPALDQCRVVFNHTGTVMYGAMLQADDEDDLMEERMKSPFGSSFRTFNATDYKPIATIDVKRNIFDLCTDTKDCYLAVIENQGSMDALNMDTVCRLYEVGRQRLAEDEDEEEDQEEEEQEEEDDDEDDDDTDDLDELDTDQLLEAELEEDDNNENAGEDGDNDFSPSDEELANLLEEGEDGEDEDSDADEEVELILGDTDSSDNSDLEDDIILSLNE
The “SYPRO Orange fluorescence” was 17300 a.u. (WDR5; 70.81 °C).
It gave 15700 a.u. for “SYPRO Orange fluorescence” (WDR5; 47.2 °C).
The “SYPRO Orange fluorescence” was 16100 a.u. (WDR5; 49 °C).
The “SYPRO Orange fluorescence” was 19500 a.u. (DCAF1; 54.01 °C).
It gave 16800 a.u. for “SYPRO Orange fluorescence” (WDR5; 51.4 °C).
It gave 11900 a.u. for “SYPRO Orange fluorescence” (DCAF1; 41 °C).
It gave 14000 a.u. for “SYPRO Orange fluorescence” (WDR5; 38 °C).
It gave 13200 a.u. for “SYPRO Orange fluorescence” (WDR5; 34.4 °C).
WDR5; 64.81 °C — “SYPRO Orange fluorescence”: 14000 a.u.
WDR5; 82.21 °C — “SYPRO Orange fluorescence”: 46600 a.u.
It gave 16500 a.u. for “SYPRO Orange fluorescence” (WDR5; 57.01 °C).

Study 2
Compound: COCCCCCCC1CC2C(CCC3(C)C(O)CCC23)c2ccc(O)cc21 (centres unmarked)
It gave 1.33 for “mRNA level ratio” (SK-OV-3; microarray, measured: ADAMTS14; 10 µM; relative to: untreated).
It gave 1 for “mRNA level ratio” (PANC-1; DNA microarray, measured: CCL11; 10 µM; relative to: untreated cells).
A549; microarray, measured: GADD45A; 50 µM; relative to: untreated — “mRNA level ratio”: 19.5.
It gave 0.345 for “mRNA level ratio” (A549; microarray, measured: ADAMTS8; 50 µM; relative to: untreated).
For SK-OV-3; microarray, measured: ADAMTS8; 50 µM; relative to: untreated: “mRNA level ratio” read 1.
The “mRNA level ratio” was 1.07 (A549; microarray, measured: ISG20L1; 10 µM; relative to: untreated).
It gave 0.851 for “mRNA level ratio” (PANC-1; DNA microarray, measured: ACTB; 10 µM; relative to: untreated cells).
It gave 24.3 for “mRNA level ratio” (A549; microarray, measured: CCL8; 50 µM; relative to: untreated).
It gave 0.94 for “mRNA level ratio” (A549; DNA microarray, measured: ACTB; 50 µM; relative to: untreated cells).
For SK-OV-3; microarray, measured: ADAMTS14; 50 µM; relative to: untreated: “mRNA level ratio” read 1.07.

Study 3 — concentration: 1 µM
SMILES: COc1cc(-c2nc3ccc(C(=O)NCCCN(C)C)cc3n2C2CCC2)cc(OC)c1OC
For Hepatocyte growth factor receptor (MET, Homo sapiens, UniProt P08581, Y1235D); binding, competition with immobilised ligand: remaining binding read 100%.
The remaining binding was 100% (Serine/threonine-protein kinase 16 (STK16, Homo sapiens, UniProt O75716); binding, competition with immobilised ligand).
The remaining binding was 87% (Ribosomal protein S6 kinase alpha-4, N-terminal kinase domain (RPS6KA4, Homo sapiens, UniProt O75676); binding, competition with immobilised ligand).
Serine/threonine-protein kinase B-raf (BRAF, Homo sapiens, UniProt P15056, V600E); binding, competition with immobilised ligand — remaining binding: 88%.
For Rho-associated protein kinase 2 (ROCK2, Homo sapiens, UniProt O75116); binding, competition with immobilised ligand: remaining binding read 97%.
Serine/threonine-protein kinase PAK 4 (PAK4, Homo sapiens, UniProt O96013); binding, competition with immobilised ligand — remaining binding: 91%.
For Epithelial discoidin domain-containing receptor 1 (DDR1, Homo sapiens, UniProt Q08345); binding, competition with immobilised ligand: remaining binding read 73%.
It gave 80% for remaining binding (Serine/threonine-protein kinase B-raf (BRAF, Homo sapiens, UniProt P15056); binding, competition with immobilised ligand).
It gave 80% for remaining binding (Mitogen-activated protein kinase kinase kinase kinase 3 (MAP4K3, Homo sapiens, UniProt Q8IVH8); binding, competition with immobilised ligand).
For Fibroblast growth factor receptor 3 (FGFR3, Homo sapiens, UniProt P22607); binding, competition with immobilised ligand: remaining binding read 96%.
It gave 92% for remaining binding (Tyrosine-protein kinase JAK1, JH2 (JAK1, Homo sapiens, UniProt P23458); binding, competition with immobilised ligand).
It gave 51% for remaining binding (Casein kinase I isoform alpha-like (CSNK1A1L, Homo sapiens, UniProt Q8N752); binding, competition with immobilised ligand).
The remaining binding was 100% (Dual specificity mitogen-activated protein kinase kinase 1 (MAP2K1, Homo sapiens, UniProt Q02750); binding, competition with immobilised ligand).
For Epidermal growth factor receptor (EGFR, Homo sapiens, UniProt P00533, L858R/T790M); binding, competition with immobilised ligand: remaining binding read 61%.
Serine/threonine-protein kinase SIK1 (SIK1, Homo sapiens, UniProt P57059); KINOMEscan; relative to: control — remaining binding: 100%.
For Cyclin-dependent kinase 5 (CDK5, Homo sapiens, UniProt Q00535); binding, competition with immobilised ligand: remaining binding read 100%.
The remaining binding was 100% (Phosphatidylinositol 5-phosphate 4-kinase type-2 gamma (PIP4K2C, Homo sapiens, UniProt Q8TBX8); binding, competition with immobilised ligand).

Study 4 — observed: kinase activity
SMILES: CN(C1COC1)C(C)(C)/C=C(\C#N)C(=O)N1CCC[C@H]1Cn1nc(-c2ccc(Oc3ccccc3)cc2F)c2c(N)ncnc21
The inhibition was -1% (Dual specificity mitogen-activated protein kinase kinase 2 (MAP2K2, Homo sapiens, UniProt P36507); 1 µM).
The inhibition was -4% (Non-receptor tyrosine-protein kinase TNK1 (TNK1, Homo sapiens, UniProt Q13470); 0.1 µM).
The inhibition was -3% (Inhibitor of nuclear factor kappa-B kinase subunit beta (IKBKB, Homo sapiens, UniProt O14920); 0.1 µM).
The inhibition was 47% (Tyrosine-protein kinase Blk (BLK, Homo sapiens, UniProt P51451); 0.1 µM).
It gave -1% for inhibition (Non-receptor tyrosine-protein kinase TYK2 (TYK2, Homo sapiens, UniProt P29597); 1 µM).
It gave 7% for inhibition (SRSF protein kinase 2 (SRPK2, Homo sapiens, UniProt P78362); 1 µM).
The inhibition was 1% (Tyrosine-protein kinase receptor UFO (AXL, Homo sapiens, UniProt P30530); 0.1 µM).
For NUAK family SNF1-like kinase 1 (NUAK1, Homo sapiens, UniProt O60285); 1 µM: inhibition read 3%.
The inhibition was 17% (Serine/threonine-protein kinase Sgk1 (SGK1, Homo sapiens, UniProt O00141); 0.1 µM).
For Aurora kinase C (AURKC, Homo sapiens, UniProt Q9UQB9); 0.1 µM: inhibition read -2%.
The inhibition was 6% (Tyrosine-protein kinase Fes/Fps (FES, Homo sapiens, UniProt P07332); 0.1 µM).
Rho-associated protein kinase 1 (ROCK1, Homo sapiens, UniProt Q13464); 0.1 µM — inhibition: 1%.
It gave -2% for inhibition (cGMP-dependent protein kinase 1 (PRKG1, Homo sapiens, UniProt Q13976); 1 µM).
It gave -1% for inhibition (Sphingosine kinase 2 (SPHK2, Homo sapiens, UniProt Q9NRA0); 1 µM).
The inhibition was 48% (Receptor-type tyrosine-protein kinase FLT3 (FLT3, Homo sapiens, UniProt P36888); 1 µM).
It gave 3% for inhibition (MAP kinase-activated protein kinase 3 (MAPKAPK3, Homo sapiens, UniProt Q16644); 0.1 µM).
Ephrin type-B receptor 1 (EPHB1, Homo sapiens, UniProt P54762); 0.1 µM — inhibition: 1%.
It gave 5% for inhibition (cAMP-dependent protein kinase catalytic subunit PRKX (PRKX, Homo sapiens, UniProt P51817); 0.1 µM).
It gave 3% for inhibition (Serine/threonine-protein kinase BRSK2 (BRSK2, Homo sapiens, UniProt Q8IWQ3); 0.1 µM).
It gave 5% for inhibition (High affinity nerve growth factor receptor (NTRK1, Homo sapiens, UniProt P04629); 1 µM).
The inhibition was -2% (Cyclin-dependent kinase 7 (CDK7, Homo sapiens, UniProt P50613); 1 µM).

Excerpt of the above (study 3):
The remaining binding was 100% (Dual specificity mitogen-activated protein kinase kinase 1 (MAP2K1, Homo sapiens, UniProt Q02750); binding, competition with immobilised ligand).
It gave 51% for remaining binding (Casein kinase I isoform alpha-like (CSNK1A1L, Homo sapiens, UniProt Q8N752); binding, competition with immobilised ligand).
Serine/threonine-protein kinase PAK 4 (PAK4, Homo sapiens, UniProt O96013); binding, competition with immobilised ligand — remaining binding: 91%.
For Epidermal growth factor receptor (EGFR, Homo sapiens, UniProt P00533, L858R/T790M); binding, competition with immobilised ligand: remaining binding read 61%.
It gave 92% for remaining binding (Tyrosine-protein kinase JAK1, JH2 (JAK1, Homo sapiens, UniProt P23458); binding, competition with immobilised ligand).
